# Assay results of several laboratories.
# Target: Homeodomain-interacting protein kinase 3 (HIPK3, Homo sapiens, UniProt Q9H422)
Compound,test,setting,scale,endpoint,result
CNC(=O)C1CCN(c2cc(C)c(F)cc2NC(=O)c2ccc(-c3cc(O)ccc3C)c(C)c2)CC1,"binding, competition with immobilised ligand",1 µM,,remaining binding,100%
C=CC(=O)N1Cc2nc(-c3cc(-c4cc(Cl)cnc4Cl)c(F)cc3F)n(-c3ccncn3)c2C1,"cell-free assay, inhibitor",1 µM,,inhibition,5.5%
O=C(Cc1ccc(OCc2ccccc2)cc1)NC1(C(=O)O)CCN(C(=O)c2ccc(-c3cccc(Cl)c3)cc2)CC1,"enzyme activity, inhibitor",10 µM,,activity vs control,101%
COc1c(Cl)cccc1Nc1c(-c2ccncc2C#C[C@@]2(C)CCCN2C(=O)/C=C/CN(C)C)[nH]c2c1C(=O)NCC2,"binding, competition with immobilised ligand",3 µM,,remaining binding,90%
CNC1C[S+]2CC[S+]3CC[S+](C1)[Ru-4]321([N]=C=S)[n]2c3ccc(OC)cc3c3c4c(c5cc(F)c[n+]1c5c32)C(=O)NC4=O (centres unmarked),KinomeScan,0.1 µM,baseline: untreated,remaining binding,95%
COc1cc(Nc2nc(C)cc(-c3cnn4nc(OC)ccc34)n2)cc(C(F)(F)F)c1,inhibitor,1 µM,baseline: control,remaining activity,95%
CCn1cc(C(=O)O)c(=O)c2c(N)c(F)c(NC3CCCCC3)cc21,kinase activity,"0.1 µM, together with: ATP at Km",,inhibition,14.7%
C=CC(=O)N1CCCC(n2c(=O)c3ncccc3n(Cc3ccc(Oc4ccccc4)cc3)c2=O)C1 (centres unmarked),"cell-free assay, competition with immobilised ligand",1 µM,,remaining binding,97%
Cc1cccc(O[C@H]2CCC[C@@H](C(C)CNCc3ccncc3)C2)c1 (relative stereo),"enzyme activity, inhibitor",10 µM,,inhibition,-7%
CN1CC[C@@H](COc2cnc(C#N)cc2-c2ccn3nc(NC(=O)C4CC4)cc3c2)C1,"enzyme activity, inhibitor",1 µM,,inhibition,9%
Nc1ncc2c(n1)-c1c([nH]c3ccc(C4=CCOCC4)cc13)CCC2,"binding, competition with immobilised ligand",1 µM,,remaining binding,50%
CC(C)=CC1OC(C)(C)C2C=C3C(=O)C(Cl)=CC(O)C3C3C(O)C4OC4C(=O)C132 (centres unmarked),"cell-free assay, competition with immobilised ligand",10 µM,,remaining binding,75%
C=CC(=O)Nc1cccc(-c2cnc3[nH]cc(C(=O)NC(C)(C)C)c3n2)c1,"enzyme activity, inhibitor",0.1 µM,,inhibition,47%
NC(=O)C[C@H]1CCc2sc3ncnc(O[C@H]4CC[C@H](N5CCOCC5)CC4)c3c21,"enzyme activity, inhibitor",10 µM,,inhibition,1%

# A few entries again:
Compound,test,setting,scale,endpoint,result
Cc1cccc(O[C@H]2CCC[C@@H](C(C)CNCc3ccncc3)C2)c1 (relative stereo),"enzyme activity, inhibitor",10 µM,,inhibition,-7%
